Earlier results, collected from citations in different studies.
Lines come from different studies, so protocols differ. Numbers after ± are the reported error. No end group written: not given here.
ACE: Angiotensin-converting enzyme (ACE, Homo sapiens, UniProt P12821)
Sequence of UniProt P12821 (whole entry, looked up): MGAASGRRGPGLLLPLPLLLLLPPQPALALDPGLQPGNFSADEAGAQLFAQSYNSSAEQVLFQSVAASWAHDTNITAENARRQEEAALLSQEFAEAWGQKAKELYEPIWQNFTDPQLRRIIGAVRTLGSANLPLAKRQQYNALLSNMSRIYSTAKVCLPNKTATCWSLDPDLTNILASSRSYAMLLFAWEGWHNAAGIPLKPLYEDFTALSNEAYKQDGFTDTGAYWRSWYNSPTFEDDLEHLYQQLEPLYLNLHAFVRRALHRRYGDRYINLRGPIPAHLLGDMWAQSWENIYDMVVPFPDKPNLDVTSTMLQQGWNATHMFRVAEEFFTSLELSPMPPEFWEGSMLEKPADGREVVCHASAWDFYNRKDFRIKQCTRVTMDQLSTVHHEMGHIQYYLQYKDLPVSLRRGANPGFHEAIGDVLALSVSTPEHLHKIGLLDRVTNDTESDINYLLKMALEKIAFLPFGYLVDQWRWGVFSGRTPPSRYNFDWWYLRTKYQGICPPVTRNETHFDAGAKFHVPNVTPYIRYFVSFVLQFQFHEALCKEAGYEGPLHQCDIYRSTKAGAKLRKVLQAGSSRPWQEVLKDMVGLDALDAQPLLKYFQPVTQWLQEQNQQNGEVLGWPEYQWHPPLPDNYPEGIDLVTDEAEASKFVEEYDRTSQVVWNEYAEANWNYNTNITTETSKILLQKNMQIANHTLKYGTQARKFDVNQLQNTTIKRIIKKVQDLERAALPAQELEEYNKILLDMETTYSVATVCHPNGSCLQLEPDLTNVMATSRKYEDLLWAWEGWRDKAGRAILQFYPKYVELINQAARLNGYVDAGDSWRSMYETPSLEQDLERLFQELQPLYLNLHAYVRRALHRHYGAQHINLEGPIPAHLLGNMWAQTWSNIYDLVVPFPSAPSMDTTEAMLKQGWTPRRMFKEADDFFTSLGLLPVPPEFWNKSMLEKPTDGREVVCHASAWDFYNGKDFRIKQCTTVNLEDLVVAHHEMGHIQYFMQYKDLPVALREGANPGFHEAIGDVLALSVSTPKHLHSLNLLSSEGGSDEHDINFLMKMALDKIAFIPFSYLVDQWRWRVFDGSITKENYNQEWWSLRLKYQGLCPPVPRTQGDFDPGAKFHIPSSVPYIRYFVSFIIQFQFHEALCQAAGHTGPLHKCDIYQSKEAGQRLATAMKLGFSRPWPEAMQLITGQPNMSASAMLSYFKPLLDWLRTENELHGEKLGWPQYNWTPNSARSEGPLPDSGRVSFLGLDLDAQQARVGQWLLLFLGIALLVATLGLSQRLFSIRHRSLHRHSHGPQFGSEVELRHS
PTGS2: Prostaglandin G/H synthase 2 (PTGS2, Homo sapiens, UniProt P35354)
Sequence of UniProt P35354 (whole entry, looked up): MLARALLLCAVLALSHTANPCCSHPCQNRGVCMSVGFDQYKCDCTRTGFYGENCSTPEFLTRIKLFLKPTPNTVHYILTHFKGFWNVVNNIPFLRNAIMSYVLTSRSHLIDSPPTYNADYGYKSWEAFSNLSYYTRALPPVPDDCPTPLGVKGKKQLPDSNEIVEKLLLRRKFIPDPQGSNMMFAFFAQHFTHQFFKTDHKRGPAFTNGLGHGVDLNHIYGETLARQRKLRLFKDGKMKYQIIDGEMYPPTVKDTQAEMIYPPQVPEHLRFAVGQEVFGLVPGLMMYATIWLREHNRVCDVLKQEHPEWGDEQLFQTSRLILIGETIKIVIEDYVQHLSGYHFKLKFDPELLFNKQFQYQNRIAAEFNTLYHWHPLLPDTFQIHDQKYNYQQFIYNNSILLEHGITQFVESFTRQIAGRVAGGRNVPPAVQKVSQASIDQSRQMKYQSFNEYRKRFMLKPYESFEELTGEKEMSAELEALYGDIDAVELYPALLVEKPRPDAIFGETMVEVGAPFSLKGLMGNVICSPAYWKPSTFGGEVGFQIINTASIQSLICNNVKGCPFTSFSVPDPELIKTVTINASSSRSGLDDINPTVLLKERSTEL
B1: CCL1; sequence looked up; chain KSMQVPFSRCCFSFAEQEIPLRAILCYRNTSSICSNEGLIFKLKRGKEACALDTVGWVQRHRKMLRHCPSKRK
Sequence of UniProt Q9ZMY2 (whole entry, looked up): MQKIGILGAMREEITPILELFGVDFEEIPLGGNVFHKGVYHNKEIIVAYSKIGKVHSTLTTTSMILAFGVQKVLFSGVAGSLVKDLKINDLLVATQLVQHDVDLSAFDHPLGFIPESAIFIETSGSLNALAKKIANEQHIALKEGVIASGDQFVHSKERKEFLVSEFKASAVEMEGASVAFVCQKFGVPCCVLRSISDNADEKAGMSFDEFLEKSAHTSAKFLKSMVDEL

pegcetacoplan  median Tmax (healthy human volunteers; subcutaneous, after first daily dose, all dose groups): 24 h
Ivermectin  EC50 (GABA-A receptor; literature value): 3 µM
QYLPR  IC50 (ACE; peptide): 655 µM
bromfenac  IC50 (PTGS2; inhibitor): 0.00745 µM
AHFSSLESEV  Kd (CHAPSYN-110 PDZ domains 2/3; binding, fluorescence polarization; peptide): 3.91 µM
CHRSYYTWNLNC  IC50 (CD274 (Homo sapiens, UniProt Q9NZQ7); binding; peptide): 0.18 µM
EKLSSIESDV  Kd (CHAPSYN-110 PDZ domains 2/3; binding, fluorescence polarization; peptide): 4.72 µM
B1 (CCL1)  EC50 (CCR8 S110W mutant; IP accumulation, agonist): > 1 µM
HTHSYIETHV  Kd (CHAPSYN-110 PDZ domain 3; binding, fluorescence polarization; peptide): 5.27 µM
SEGPK  IC50 (ACE; inhibitor; peptide): 1220 µM
oxaprozin  IC50 (PTGS2; inhibitor): 36 µM
FDGPY  IC50 (ACE; inhibitor; peptide): 1570 µM
CCFSWRCRC (disulfide (positions not given here)) (disulfide)  Ki (bovine alpha-chymotrypsin; inhibitor; added: Suc-Ala-Ala-Pro-Phe-pNA): 0.9 µM
oxaprozin potassium  IC50 (PTGS2; inhibitor): 36 µM
AMTSRKRKFVWYVLSSSLKWLIKKAKKIGVQVCGFE  MIC (Staphylococcus aureus; peptide, ATCC 6538): 3 µM
Et-DADMe-ImmA  Ki (Aminodeoxyfutalosine nucleosidase (Helicobacter pylori, UniProt Q9ZMY2); enzyme activity, inhibitor; initial weaker complex): 0.00017 ± 6e-05 µM
DTKNYKQTSV  Kd (CHAPSYN-110 PDZ domains 2/3; binding, fluorescence polarization; peptide): 17.4 µM
ITAPHW  IC50 (ACE; peptide): 51.7 µM
RGTCYNRVGLIIRNFSKLKGKKV  MIC (Pseudomonas aeruginosa; peptide, ATCC 15692): 7 µM
tolmetin sodium dihydrate  IC50 (PTGS2; inhibitor): 0.82 µM

Some of these lines once more:
Et-DADMe-ImmA  Ki (Aminodeoxyfutalosine nucleosidase (Helicobacter pylori, UniProt Q9ZMY2); enzyme activity, inhibitor; initial weaker complex): 0.00017 ± 6e-05 µM
DTKNYKQTSV  Kd (CHAPSYN-110 PDZ domains 2/3; binding, fluorescence polarization; peptide): 17.4 µM
ITAPHW  IC50 (ACE; peptide): 51.7 µM
